Experimental data of several laboratories.
Parts stem from different laboratories: compare values within a part only. Changes are numbered by the printed parent chain.

Series 1 — target: CCNA2, cyclin fold, Cln2 fusion (human); technique: yeast growth competition, sequencing; sample: yeast; notes: strong parent motif; baseline: not given; direction: higher = stronger binding; parent: viral docking peptide; KGVKRKLFAEDSS
Change	normalised enrichment score
KGVKRKIFAEDSS [L7I]	2.5
KGVKRKTFAEDSS [L7T]	0.935
KGVKRNLFAEDSS [K6N]	5.16
KGVKIKLFAEDSS [R5I]	3.25
KGVKRKLFAEDLS [S12L]	6.45
KGVKCKLFAEDSS [R5C]	3.62
KPVKRKLFAEDSS [G2P]	6.59
KGVKRKLFAFDSS [E10F]	5.38
KGVKRKLFATDSS [E10T]	5.89
AGVKRKLFAEDSS [K1A]	6.47
KGVARKLFAEDSS [K4A]	6.56
KGVKRKFFAEDSS [L7F]	0.783
KGVKRKLTAEDSS [F8T]	0.424
KGVKRGLFAEDSS [K6G]	3.24
KGVKRKLFEEDSS [A9E]	6.15
KGVKRKLFAKDSS [E10K]	4.66
KGVKSKLFAEDSS [R5S]	0.373
KGEKRKLFAEDSS [V3E]	0.51
KGVKRKLNAEDSS [F8N]	-0.0325
KGVKRKLFAEDMS [S12M]	5.92
KGVKRKKFAEDSS [L7K]	0.383
KGVKRKLFWEDSS [A9W]	6.12
KGVKRKLFAEDCS [S12C]	6.28
KGVKRKLFAEWSS [D11W]	5.67
KGVKRKLVAEDSS [F8V]	0.817

Series 2 — technique: protein-binding microarray; form: double-stranded DNA, one strand shown; sample: in vitro; concentration: 250 nM; notes: 60-bp whole probe; with: salmon DNA 0.4 mg/ml; baseline: random background probes; direction: higher = stronger binding; constant ends, left off below: GCCTAGCAC … GTCTTGATTCGCTTGACGCTGCTG
Target: Interferon regulatory factor 5, full length, phosphomimetic (IRF5, Homo sapiens, UniProt Q13568-2, residues 1-514, K96S/S451D/S453D/S456D/S462D)
Sequence	log fluorescence [z-score]
GACGGACTGGGAGTGGGGACGTGCTAG	-0.45
GTCGAACTGAGTCTCGAGACGTGCTAG	0.335
GACGGTCTCCGTTTCCTGACGTGCTAG	-0.0337
GACCAACTGAGTTTCGAGACGTGCTAG	4.41
GACGGTCTACTTTTCCTGACGTGCTAG	0.37
GACGATTTCAGTATCGATACGTGCTAG	8.47
TCACATATACACTGTGTATCTGTGCTA	0.693
AACGGTATCGGGACTGGGGACGTGCTA	1.55

Series 3 — technique: aptamer microarray, sandwich; form: DNA with 2'F-ANA; sample: in vitro; concentration: 200 nM; with: Cy3 exosite-II aptamer, 400 nM; direction: higher = stronger binding; sequence: GGTTGGTGTGGTTGG
Target: Prothrombin, mature alpha-thrombin (F2, Homo sapiens, UniProt P00734)
Notes: whole 15-mer aptamer, many near background
Modification	mean fluorescence intensity [a.u.]
2'F-ANA at 1 2 4 6 8 9 10 11 12 13 15	55.1
2'F-ANA at 3 4 5 7 10 15	58.2
2'F-ANA at 2 3 4 5 8 9 10 11 12	55.6
2'F-ANA at 1 2 3 5 8 11 12 14	46.9
2'F-ANA at 3 4 8 11 13 15	588
2'F-ANA at 4 9 10 14 15	72.5
2'F-ANA at 1 2 4 5 7 8 9 10 11 12 13 14	52.1
2'F-ANA at 1 3 4 5 6 7 14 15	47.6

Series 4 — technique: RNA Bind-n-Seq; form: RNA; sample: in vitro; concentration: not given; baseline: input RNA pool; direction: higher = stronger binding
Target: RING finger protein unkempt homolog, zinc fingers 1-6, GST-SBP tag (UNK, Homo sapiens, UniProt Q9C0B0, residues 30-357)
Notes: RNA with constant flanks, human and mouse sites, ends assumed
Constant ends, left off below: GGGAGUUCUACAGUCCGACGAUC … CAACAGAGGAUUGAGCAUCA
Residues (chain): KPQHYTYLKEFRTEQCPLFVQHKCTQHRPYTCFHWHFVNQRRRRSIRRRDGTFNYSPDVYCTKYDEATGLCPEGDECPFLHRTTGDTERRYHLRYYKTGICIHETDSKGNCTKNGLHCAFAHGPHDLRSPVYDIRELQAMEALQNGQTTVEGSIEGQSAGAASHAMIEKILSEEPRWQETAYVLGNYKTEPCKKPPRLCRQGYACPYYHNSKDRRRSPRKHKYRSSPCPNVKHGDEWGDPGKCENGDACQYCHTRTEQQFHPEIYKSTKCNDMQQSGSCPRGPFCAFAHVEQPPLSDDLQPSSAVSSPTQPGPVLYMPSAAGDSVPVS
Sequence	bound/input enrichment [ratio]
UUGAAAUCUGGAAUGUCUCCUGAGCAGAGCAGGUUCCAGUCUGACUCUUCUUCAUAUCCUACAGUGGACUCGAAUUCUCUCUUGGGGCAGAGUAGAUUGGAGACUGCUGAAUCAAAAGAG	0.22
GGCCGGGGCCUGGGCCUGAGCAUCGUUGGGAAACGAAAUGGAAGCGGAGUGUUUAUUUCUGACAUCGUGAAAGGCGGAGCCGCAGACCUGGAUGGGAGAUUGAUUCAGGGAGAUCAGAUC	0.296
CCCCUCAUUUGACCUUUCACCUCUGUCUGUUGGAAGCAGUACUUUUUACUGCCUCAUUGUCUUCUGUACAUCUUACUGGGUUUAAUUAAAAAAAAAGAAAAAACUCUGUUGUAAAAACAG	0.501
CUGACAGAAAUGGACAGCAAUUACCAUUUUUACUCAUCGAUCUCCUCGCUGGAAAAAGAAGUGGGCAACUGUGGUCCACAUUUCCUUCAUGGUUUUGAGGAUUCUUUCAGCAGCAUCCUC	0.0557
AGAAUCCCGAAUCCUGGGCCUGUCCAGGGUCAAAUGGAGUUUUUGGUAUUAAUACAUCUCUGCAGGGUUUCUUUUUGGAGCACUGUGCUGUCUUUCCUAGUCAGUCAGGGACUUUUUUAA	0.202
GAAGGUUUCUUUACCAACGGUUUGACUCUUGGCGCGAAGAAAUGCUCAGUGAUCAGAGAUAGUCUAUACGUCGAUGGUGACUGCACAAUGGACAUCCGGACAAAGAGUCAAGGUGGGGAG	0.172
ACCAGCUAUGGUUUGCCACAAGCCAGGAGGAUAUCACUGGCCACUCCUCGACAGCUGUAUAAGUCUUCCAAUAUGACUCAGCGCUGGCAAAGAAGGGAAAUCUCCAACUUUGAGUAUUUG	0.105
UUAGUGAACAGCACUGAUCUCUGUAUAGUCCCCAUCACUAAUGUCAGAACCCAGCGUAUGUAGCAUUUGUAUUGCAGUUUCCCUGGCUUCCUUUACGUUUUGCACUGAUGAAUUUUGACA	0.437

Mixed results
Compound	organism	observed	concentration	time	measurement	result
NC(=NCc1ccc(Cl)cc1)SCCCc1cnc[nH]1	Sarcocystis neurona	parasite activity	10 µM	96 h	activity class	inactive

For quick reference, copied from above (series 3):
Modification	mean fluorescence intensity [a.u.]
2'F-ANA at 1 2 3 5 8 11 12 14	46.9
2'F-ANA at 4 9 10 14 15	72.5
2'F-ANA at 1 2 4 6 8 9 10 11 12 13 15	55.1
2'F-ANA at 1 2 4 5 7 8 9 10 11 12 13 14	52.1
